Experimental data pooled from the literature.
A part holds a random share of what one study measured.
UniProt O15294, sequence (whole entry, looked up): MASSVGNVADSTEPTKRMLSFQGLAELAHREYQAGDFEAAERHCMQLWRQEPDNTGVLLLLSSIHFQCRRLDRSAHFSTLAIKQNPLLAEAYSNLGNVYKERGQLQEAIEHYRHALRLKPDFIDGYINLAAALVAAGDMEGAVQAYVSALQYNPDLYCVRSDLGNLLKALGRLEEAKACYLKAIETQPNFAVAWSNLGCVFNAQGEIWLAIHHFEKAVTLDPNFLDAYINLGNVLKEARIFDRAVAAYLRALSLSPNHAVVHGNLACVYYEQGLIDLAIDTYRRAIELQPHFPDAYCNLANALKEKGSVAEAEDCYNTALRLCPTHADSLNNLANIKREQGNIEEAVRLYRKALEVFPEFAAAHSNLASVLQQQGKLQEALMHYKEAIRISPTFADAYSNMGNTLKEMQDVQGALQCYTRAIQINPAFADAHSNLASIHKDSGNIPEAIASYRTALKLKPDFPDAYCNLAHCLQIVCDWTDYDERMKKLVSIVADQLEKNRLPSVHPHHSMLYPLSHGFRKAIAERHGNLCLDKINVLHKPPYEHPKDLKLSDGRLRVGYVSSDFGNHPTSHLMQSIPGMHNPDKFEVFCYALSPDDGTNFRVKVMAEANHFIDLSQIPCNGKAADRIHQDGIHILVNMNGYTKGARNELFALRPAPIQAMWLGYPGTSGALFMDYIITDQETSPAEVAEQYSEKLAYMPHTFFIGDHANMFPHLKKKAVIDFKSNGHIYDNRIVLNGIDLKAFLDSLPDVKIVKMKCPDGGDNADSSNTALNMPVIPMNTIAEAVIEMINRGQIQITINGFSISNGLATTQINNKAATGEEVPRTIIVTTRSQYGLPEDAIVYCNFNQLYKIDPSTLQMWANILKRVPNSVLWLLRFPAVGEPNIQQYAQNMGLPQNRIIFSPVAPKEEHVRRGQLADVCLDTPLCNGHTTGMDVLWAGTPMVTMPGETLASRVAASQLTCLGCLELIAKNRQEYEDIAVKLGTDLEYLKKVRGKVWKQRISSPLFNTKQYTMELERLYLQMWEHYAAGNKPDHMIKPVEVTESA

Sample 1
Target: Probable WRKY transcription factor 33, C-terminal DNA-binding domain (WRKY33, Arabidopsis thaliana, UniProt Q8S8P5, residues 346-449)
Method: DNA-protein interaction ELISA
Form: double-stranded DNA, one strand shown
Sample: in vitro, bacterial lysate
Concentration: not given
Notes: whole dsDNA probe, crude lysate protein
Baseline: highest signal in screen
Reading: higher = stronger binding
Residues (chain): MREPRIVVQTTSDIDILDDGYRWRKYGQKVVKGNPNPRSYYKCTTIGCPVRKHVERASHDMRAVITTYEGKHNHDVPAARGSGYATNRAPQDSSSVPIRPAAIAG
`AAAAAACAGTTCGATGTCACCCCCGCAAAA` gave a relative absorbance of 38.1 % of maximum.
With `AAAAAAACGGTGTCATAGTATTAGTGAAAA` the relative absorbance was 57 % of maximum.
`AAAAAATGCAACGCTCCTTTCCCGCTAAAA` gave a relative absorbance of 31.4 % of maximum.
For `AAAAAATGTTGTTGCTGTTGGTCCTAAAAA`, the relative absorbance was 33.7 % of maximum.
For `AAAAAACGGTAAGTCGACAAAA`, the relative absorbance was 65.5 % of maximum.
`AAAAAAGTGCGTTCACGCTTGTATCTAAAA` gave a relative absorbance of 28.1 % of maximum.
`AAAAAACACTCACACCTATACGGCTCAAAA` has a relative absorbance of 49 % of maximum.
With `AAAAAAGTCGTCACGCACGTGAATACAAAA` the relative absorbance was 59.6 % of maximum.

Sample 2
Target: Phosphate system positive regulatory protein PHO4, full length, GST-tagged (PHO4, Saccharomyces cerevisiae, UniProt P07270, residues 1-312)
Method: competition protein-binding microarray
Form: double-stranded DNA, one strand shown
Sample: in vitro
Concentration: 2 µM
Notes: whole 60-bp probe, lowest competitor level
Together with: Cbf1 competitor, 0.05 µM
Reading: higher = stronger binding
All sequences stand within: … GTCTTGATTCGCTTGACGCTGCTG
Residues (chain): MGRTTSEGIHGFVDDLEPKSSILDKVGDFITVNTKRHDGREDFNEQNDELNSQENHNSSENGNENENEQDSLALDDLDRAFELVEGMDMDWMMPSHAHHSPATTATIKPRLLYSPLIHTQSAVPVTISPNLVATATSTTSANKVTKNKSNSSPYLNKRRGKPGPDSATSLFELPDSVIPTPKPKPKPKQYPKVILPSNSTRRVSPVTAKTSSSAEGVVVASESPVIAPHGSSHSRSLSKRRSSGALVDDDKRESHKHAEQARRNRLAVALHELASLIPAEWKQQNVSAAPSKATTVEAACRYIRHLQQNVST
`CTTCTGTAAATTTGGAGTGTGGGTGGACGCGCCCCG` has a fluorescence intensity of 5060 a.u.
For `TGCGCAACAACTTGATGGGTGGGTGTATGTCTAGAA`, the fluorescence intensity was 5430 a.u.
The fluorescence intensity of `AAAAAGATGCACCATCACGTGCTAAAAATCTAACAT` is reported as 14000 a.u.
`TTCATCGAATGCTTGCACATGCCAATGCACAGACAA` gave a fluorescence intensity of 8780 a.u.
The fluorescence intensity of `AAAGCGGTAATTTGGTCTGTGGGTGCAGATATCTAT` is reported as 4480 a.u.
`CGGGGTTAAGTTTGACAGGTGGGTGGCTTGCAGCAG` has a fluorescence intensity of 6620 a.u.
`CCACACTGACCGAGTCACGTGTGTTTATTCTGTTTT` has a fluorescence intensity of 14900 a.u.
The fluorescence intensity of `CGCTGCCGTTCATGATACGTGTCCTCAGGACGTCTG` is reported as 4890 a.u.

Single results of other studies
For `HQEHKHEGHWAIFD`, “minimum log2 enrichment ratio” read 2.25 (OGT (Homo sapiens, UniProt O15294); binding, phage display NGS; peptide; panning round 2; baseline: input library).
For `PhoQ, residues 284 288 289 292 302 303 TLASMF`, the fold induction was 12.9 (PhoP, residues 12 14 15 18 19 LWHVM (Escherichia coli, UniProt P23836); Sort-seq, refers to: YFP reporter; E. coli; PhoQ-PhoP variant library, together with: 10 µM Mg2+; baseline: high Mg2+ state, higher = stronger signaling).

Some of these lines once more (single results of other studies):
For `HQEHKHEGHWAIFD`, “minimum log2 enrichment ratio” read 2.25 (OGT (Homo sapiens, UniProt O15294); binding, phage display NGS; peptide; panning round 2; baseline: input library).
For `PhoQ, residues 284 288 289 292 302 303 TLASMF`, the fold induction was 12.9 (PhoP, residues 12 14 15 18 19 LWHVM (Escherichia coli, UniProt P23836); Sort-seq, refers to: YFP reporter; E. coli; PhoQ-PhoP variant library, together with: 10 µM Mg2+; baseline: high Mg2+ state, higher = stronger signaling).
